Results collected from several papers.
Values joined by “and” are separate records of one study, mostly repeats; a detail may differ. Numbers after ± are the reported error.
IDE: Insulin-degrading enzyme (IDE, Homo sapiens, UniProt P14735)
BRD9: Bromodomain-containing protein 9 (BRD9, Homo sapiens, UniProt Q9H8M2)
UniProt Q9H8M2, sequence (whole entry, looked up): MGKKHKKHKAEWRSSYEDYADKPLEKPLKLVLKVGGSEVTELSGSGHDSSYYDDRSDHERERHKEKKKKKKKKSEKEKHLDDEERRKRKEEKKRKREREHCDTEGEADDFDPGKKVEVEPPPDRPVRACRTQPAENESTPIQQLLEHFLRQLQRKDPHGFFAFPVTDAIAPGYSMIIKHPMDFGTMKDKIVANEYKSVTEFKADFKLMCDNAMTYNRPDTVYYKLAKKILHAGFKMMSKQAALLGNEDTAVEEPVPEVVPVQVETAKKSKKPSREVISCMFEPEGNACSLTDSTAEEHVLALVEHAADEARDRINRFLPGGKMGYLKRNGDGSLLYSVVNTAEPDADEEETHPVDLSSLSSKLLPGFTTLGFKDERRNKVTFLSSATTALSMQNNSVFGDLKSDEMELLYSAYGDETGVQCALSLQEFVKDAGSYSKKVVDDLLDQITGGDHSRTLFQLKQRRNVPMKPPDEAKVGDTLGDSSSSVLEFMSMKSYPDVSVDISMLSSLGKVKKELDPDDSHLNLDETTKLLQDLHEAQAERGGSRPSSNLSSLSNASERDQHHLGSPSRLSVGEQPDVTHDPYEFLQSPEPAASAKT
Protein AF-9 with DOT1L: Protein AF-9, with DOT1L (Homo sapiens, UniProt P42568)
UniProt P42568, sequence (whole entry, looked up): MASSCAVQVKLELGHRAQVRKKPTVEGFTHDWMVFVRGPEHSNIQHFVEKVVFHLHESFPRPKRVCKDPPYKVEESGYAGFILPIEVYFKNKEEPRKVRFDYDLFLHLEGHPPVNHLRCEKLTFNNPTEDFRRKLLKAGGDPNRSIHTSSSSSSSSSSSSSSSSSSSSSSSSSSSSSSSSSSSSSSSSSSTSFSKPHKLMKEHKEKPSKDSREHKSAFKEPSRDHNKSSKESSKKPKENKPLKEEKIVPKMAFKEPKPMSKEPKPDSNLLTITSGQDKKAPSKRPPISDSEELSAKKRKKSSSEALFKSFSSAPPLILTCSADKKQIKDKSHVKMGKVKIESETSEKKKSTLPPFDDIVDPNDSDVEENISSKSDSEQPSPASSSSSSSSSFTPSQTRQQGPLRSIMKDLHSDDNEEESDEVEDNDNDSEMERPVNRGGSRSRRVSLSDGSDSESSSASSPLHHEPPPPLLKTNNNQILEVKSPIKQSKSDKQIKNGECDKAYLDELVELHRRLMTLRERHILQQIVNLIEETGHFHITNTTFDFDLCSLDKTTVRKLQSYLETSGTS
UniProt P48048, sequence (whole entry, looked up): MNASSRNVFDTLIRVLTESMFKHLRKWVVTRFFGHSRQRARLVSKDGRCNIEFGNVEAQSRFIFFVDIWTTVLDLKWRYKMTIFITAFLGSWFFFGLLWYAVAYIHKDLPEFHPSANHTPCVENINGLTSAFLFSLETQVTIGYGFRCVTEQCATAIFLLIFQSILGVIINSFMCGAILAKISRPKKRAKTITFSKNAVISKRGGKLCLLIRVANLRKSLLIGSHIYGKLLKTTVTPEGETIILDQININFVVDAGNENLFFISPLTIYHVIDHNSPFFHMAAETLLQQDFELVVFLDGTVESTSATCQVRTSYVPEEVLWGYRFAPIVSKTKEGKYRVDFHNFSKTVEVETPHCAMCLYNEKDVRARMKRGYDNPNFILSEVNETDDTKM
UniProt O96017, sequence (whole entry, looked up): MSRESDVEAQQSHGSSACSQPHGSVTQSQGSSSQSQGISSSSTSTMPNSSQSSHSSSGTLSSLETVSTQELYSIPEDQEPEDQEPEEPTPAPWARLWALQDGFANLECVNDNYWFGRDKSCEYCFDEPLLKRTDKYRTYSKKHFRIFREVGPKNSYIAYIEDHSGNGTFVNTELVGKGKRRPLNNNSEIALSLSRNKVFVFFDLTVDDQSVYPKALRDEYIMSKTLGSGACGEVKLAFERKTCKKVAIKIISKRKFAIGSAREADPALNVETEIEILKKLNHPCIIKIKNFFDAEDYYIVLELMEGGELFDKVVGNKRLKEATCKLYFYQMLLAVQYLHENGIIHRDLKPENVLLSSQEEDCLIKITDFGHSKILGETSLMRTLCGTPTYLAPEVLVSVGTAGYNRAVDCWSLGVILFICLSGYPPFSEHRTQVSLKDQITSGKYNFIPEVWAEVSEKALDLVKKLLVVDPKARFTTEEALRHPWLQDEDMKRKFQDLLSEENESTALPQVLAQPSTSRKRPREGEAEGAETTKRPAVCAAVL
UniProt Q13233, sequence (whole entry, looked up): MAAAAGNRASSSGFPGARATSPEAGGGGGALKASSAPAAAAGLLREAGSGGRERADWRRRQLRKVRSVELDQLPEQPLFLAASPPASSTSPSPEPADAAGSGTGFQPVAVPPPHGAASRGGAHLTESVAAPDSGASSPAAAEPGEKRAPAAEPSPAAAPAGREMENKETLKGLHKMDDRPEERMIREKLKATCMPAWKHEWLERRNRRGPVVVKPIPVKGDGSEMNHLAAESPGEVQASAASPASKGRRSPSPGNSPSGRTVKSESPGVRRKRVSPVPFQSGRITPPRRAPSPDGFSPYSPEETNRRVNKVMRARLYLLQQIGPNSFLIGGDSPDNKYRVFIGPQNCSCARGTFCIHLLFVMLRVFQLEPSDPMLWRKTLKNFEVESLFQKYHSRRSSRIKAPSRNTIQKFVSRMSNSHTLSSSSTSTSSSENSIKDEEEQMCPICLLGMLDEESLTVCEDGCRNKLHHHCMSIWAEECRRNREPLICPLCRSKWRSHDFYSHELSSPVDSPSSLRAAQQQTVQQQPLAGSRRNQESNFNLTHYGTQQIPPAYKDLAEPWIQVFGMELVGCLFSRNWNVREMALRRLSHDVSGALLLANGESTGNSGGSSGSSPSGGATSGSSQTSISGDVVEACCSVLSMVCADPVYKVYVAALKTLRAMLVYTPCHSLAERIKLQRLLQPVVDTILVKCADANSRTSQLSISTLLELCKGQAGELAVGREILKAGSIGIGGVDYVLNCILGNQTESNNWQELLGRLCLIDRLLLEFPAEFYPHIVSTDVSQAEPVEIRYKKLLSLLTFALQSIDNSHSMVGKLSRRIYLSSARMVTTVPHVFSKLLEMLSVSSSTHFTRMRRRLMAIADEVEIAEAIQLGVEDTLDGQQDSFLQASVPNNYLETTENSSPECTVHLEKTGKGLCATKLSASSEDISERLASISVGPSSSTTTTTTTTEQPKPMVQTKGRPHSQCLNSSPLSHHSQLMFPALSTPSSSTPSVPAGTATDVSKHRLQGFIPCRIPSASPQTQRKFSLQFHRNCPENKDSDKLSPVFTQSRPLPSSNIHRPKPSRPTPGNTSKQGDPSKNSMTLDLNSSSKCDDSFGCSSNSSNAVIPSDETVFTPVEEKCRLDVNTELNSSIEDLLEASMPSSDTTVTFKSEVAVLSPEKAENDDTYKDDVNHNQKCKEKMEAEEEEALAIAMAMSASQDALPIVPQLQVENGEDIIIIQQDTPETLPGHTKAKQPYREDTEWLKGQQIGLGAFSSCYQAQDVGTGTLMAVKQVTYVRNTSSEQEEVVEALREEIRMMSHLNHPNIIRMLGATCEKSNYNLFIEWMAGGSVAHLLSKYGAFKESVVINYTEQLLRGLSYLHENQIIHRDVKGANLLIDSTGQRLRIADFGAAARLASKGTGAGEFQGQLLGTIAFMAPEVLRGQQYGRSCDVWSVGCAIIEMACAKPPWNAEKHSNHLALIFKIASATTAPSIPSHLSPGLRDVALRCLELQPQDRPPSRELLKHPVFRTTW
UniProt P07949, sequence (whole entry, unmodified, looked up): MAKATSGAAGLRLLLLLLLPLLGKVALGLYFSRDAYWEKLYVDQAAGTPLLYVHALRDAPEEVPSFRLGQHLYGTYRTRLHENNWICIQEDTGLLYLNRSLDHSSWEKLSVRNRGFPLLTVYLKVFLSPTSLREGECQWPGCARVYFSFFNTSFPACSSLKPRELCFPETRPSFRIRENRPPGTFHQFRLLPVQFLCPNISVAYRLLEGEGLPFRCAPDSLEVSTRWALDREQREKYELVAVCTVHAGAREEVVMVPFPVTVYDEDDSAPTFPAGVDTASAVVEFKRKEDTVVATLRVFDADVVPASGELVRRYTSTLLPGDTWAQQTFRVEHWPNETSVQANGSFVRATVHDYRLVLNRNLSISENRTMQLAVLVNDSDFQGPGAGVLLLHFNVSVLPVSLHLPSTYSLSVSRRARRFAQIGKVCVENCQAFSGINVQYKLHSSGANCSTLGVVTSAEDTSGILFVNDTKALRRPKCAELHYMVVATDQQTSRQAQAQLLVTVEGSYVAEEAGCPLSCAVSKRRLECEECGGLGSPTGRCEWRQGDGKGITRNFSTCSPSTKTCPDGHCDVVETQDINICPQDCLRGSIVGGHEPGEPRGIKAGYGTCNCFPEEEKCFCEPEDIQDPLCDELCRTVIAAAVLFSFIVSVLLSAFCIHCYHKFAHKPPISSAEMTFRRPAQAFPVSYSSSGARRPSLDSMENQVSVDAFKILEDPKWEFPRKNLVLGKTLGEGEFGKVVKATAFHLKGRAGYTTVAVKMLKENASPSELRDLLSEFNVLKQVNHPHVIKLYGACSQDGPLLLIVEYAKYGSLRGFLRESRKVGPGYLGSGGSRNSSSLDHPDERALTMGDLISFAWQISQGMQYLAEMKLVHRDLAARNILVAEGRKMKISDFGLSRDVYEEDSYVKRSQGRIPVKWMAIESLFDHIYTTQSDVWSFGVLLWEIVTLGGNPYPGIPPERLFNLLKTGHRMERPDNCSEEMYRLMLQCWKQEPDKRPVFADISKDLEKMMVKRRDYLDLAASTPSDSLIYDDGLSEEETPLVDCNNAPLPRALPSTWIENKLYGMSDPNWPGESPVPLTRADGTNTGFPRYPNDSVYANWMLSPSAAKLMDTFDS
UniProt Q9NZQ7, sequence (whole entry, looked up): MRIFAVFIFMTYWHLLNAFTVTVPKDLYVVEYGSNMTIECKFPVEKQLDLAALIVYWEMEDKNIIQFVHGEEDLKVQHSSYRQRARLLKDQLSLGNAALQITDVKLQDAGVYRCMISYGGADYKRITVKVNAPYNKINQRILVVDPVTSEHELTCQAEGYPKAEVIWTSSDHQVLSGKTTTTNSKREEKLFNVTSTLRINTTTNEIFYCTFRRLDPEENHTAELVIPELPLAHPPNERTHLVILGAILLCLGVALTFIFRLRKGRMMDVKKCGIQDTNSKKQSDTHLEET

With `CCCCCCCCCCCCNC(=O)NCCCC[C@H](NS(C)(=O)=O)C(=O)N[C@H](C)C(=O)N[C@@H](CCCNC(=N)N)C(N)=O` the inhibition was under 5% (NAD-dependent protein deacetylase sirtuin-3, mitochondrial (SIRT3, Homo sapiens, UniProt Q9NTG7); enzyme activity, inhibitor; 10 µM).
The EC50 of `Cc1cccc(-c2ccc([C@H]3[C@@H](CO)N4CCCCN(C(=O)c5cccnc5)C[C@H]34)cc2)c1` is reported as 3400 nM (IDE; enzyme activity, inhibitor, fluorogenic kinetic; with: Mca-RPPGFSAFK(Dnp)-OH substrate).
`Cn1cc(-c2cnc3ccc(NC(=O)Nc4ccc(F)c(Br)c4)cc3n2)cn1` has an inhibition of 58.5% (Mitogen-activated protein kinase kinase kinase 1 (MAP3K1, Homo sapiens, UniProt Q13233); kinase binding, KiNativ profiling, item: Lys2 peptide; PANC-1 lysate; 7.5 µM).
`O=c1c(OS(=O)(=O)[O-])c(-c2ccc(OS(=O)(=O)[O-])c(OS(=O)(=O)[O-])c2)oc2cc(OS(=O)(=O)[O-])cc(OCc3ccc(COc4cc(OS(=O)(=O)[O-])cc5oc(-c6ccc(OS(=O)(=O)[O-])c(OS(=O)(=O)[O-])c6)c(OS(=O)(=O)[O-])c(=O)c45)cc3)c12.[Na+].[Na+].[Na+].[Na+].[Na+].[Na+].[Na+].[Na+]` gave an inhibition of 60 to 70% (Neutrophil elastase (ELANE, Homo sapiens, UniProt P08246); elastin cleavage, elastin-Congo red; concentration not given, pH 8, 37 °C).
`COc1cc(C(=O)NS(=O)(=O)c2ccccc2C)ccc1Cc1cn(C)c2ccc(NC(=O)OC3CCCC3)cc12` gave an inhibition of 15.4% and 7.6% and 16.6% and 20% and 23.5% and 2.13% (Volume-regulated anion channel subunit LRRC8C, part LRRC8A IL1 chimera (LRRC8C, Homo sapiens, UniProt Q8TDW0, M48D); ion current, inhibitor, whole-cell patch clamp; HCT LRRC8-/- cells; 3 µM, constitutively open channel, +100 mV).
The EC50 of `Cc1ccccc1-c1ccc([C@@H]2[C@@H](CO)N3CCCCN(S(=O)(=O)c4ccccc4C)C[C@@H]23)cc1` is reported as 32 nM (IDE; enzyme activity, inhibitor, fluorescence kinetic; with: Mca-RPPGFSAFK(Dnp)-OH substrate).
`COc1cc(-c2cc(C(C)=O)n3ccccc23)c(OC)cc1C(=O)N1CCOCC1` gave an inhibition of 95.5% (BRD9; AlphaScreen; 1 µM).
`Cc1cc(O)c(-c2ccc([C@@H](C)CN(C)C)cc2)c2c1[nH]c(=O)c1sccc12` gave an inhibition of 13.5% (Diacylglycerol kinase eta (DGKH, Homo sapiens, UniProt Q86XP1); inhibitor, KiNativ probe labelling; cell lysate; 0.1 µM).
`CC[C@]12CCCN3CCc4c([nH]c5ccccc45)[C@]31N(Cc1cn(Cc3ccccc3)nn1)C(=O)C2` gave an inhibition of 6% (fMet-Leu-Phe receptor (FPR1, Homo sapiens, UniProt P21462); beta-arrestin recruitment, antagonist, PathHunter chemiluminescence; 20 µM, with: agonist at EC80).
The inhibition of `NC/C(=C\F)COc1cccc(Cn2c(=S)[nH]c(=O)c3[nH]cnc32)c1` is reported as under 50% (rat rolipram binding site; radioligand binding; 10 µM).
The inhibition of `COc1cc(OC)cc(Oc2ccc3ncc(OCC4CCNCC4)nc3c2)c1` is reported as 2 to 16% (Protein AF-9 with DOT1L; DOT1L binding, AlphaLISA; 10 µM).
For `CC(=O)Nc1ccc(C(=O)Nc2ccccc2N)cc1`, the viability was 73.2% (HBL-1; 0.5 µM, 120 h).
`CN1CCN(c2cc(-c3ccncc3)c(-c3ccc4ccccc4c3)nn2)CC1` has an inhibition of 0.6% (C-C chemokine receptor type 4 (CCR4, Homo sapiens, UniProt P51679); antagonist, FLIPR; 10 µM).
`[2H]c1cc(C)c(NC(=O)c2cnc(Nc3cc(N4CCCCC4)nc(C)n3)s2)c(Cl)c1` gave an inhibition of under 30% (Proto-oncogene tyrosine-protein kinase receptor Ret (RET, Homo sapiens, UniProt P07949, S891A); 0.01 µM).
`c1cc(C2CCCCC2)ccc1Nc1ccc2ncc(OCC3CCNCC3)nc2c1` gave an inhibition of 49% (Protein AF-9 with DOT1L; DOT1L binding, AlphaLISA; 10 µM).
With `NC(=O)c1cccc(NC(=O)/C=C/c2c[nH]c3ccccc23)c1` the viability was 106% (HBL-1; 1 µM, 120 h).
`CC(C)c1noc2ncc(C(=O)c3ccccc3O)cc12` gave an inhibition of 5.59% and 5.93% and 6.9% and 1.19% and 4.17% (ATP-sensitive inward rectifier potassium channel 1 (Homo sapiens, UniProt P48048); ion current, inhibitor, whole-cell patch clamp; 10 µM).
With `CC[C@@H]1[C@H](F)C(=O)N[C@@H]1COc1nccc2cc(C(N)=O)c(OC)cc12` the inhibition was -4.8% (Serine/threonine-protein kinase Chk2 (CHEK2, Homo sapiens, UniProt O96017); ATP-site probe binding, ActivX profiling; THP-1 cell lysate; 0.01 mM, Lys2 site).
For `CC(=O)c1cc(-c2cccc(C(F)(F)F)c2)c2ccccn12`, the inhibition was 60.2% (BRD9; AlphaScreen; 1 µM).
`c1ccc(Oc2ccc(-c3ccc4ncc(OCC5CCNCC5)nc4c3)cc2)cc1` gave an inhibition of 0 to 21% (Protein AF-9 with DOT1L; DOT1L binding, AlphaLISA; 10 µM).
`COc1cc(-c2cc(C(C)=O)n3ccccc23)c(OC)cc1C(C)=O` gave an inhibition of 95.4% (BRD9; AlphaScreen; 1 µM).
`COc1ccc(C(=O)/C=C/c2cccc(-c3cccc(-c4ccc(CNCCN)c(OC)n4)c3C)c2)cc1` gave an inhibition of 6 ± 0.8% (Programmed cell death 1 ligand 1 (CD274, Homo sapiens, UniProt Q9NZQ7); binding, inhibitor, HTRF; 1 µM).

Repeated from above:
The EC50 of `Cc1ccccc1-c1ccc([C@@H]2[C@@H](CO)N3CCCCN(S(=O)(=O)c4ccccc4C)C[C@@H]23)cc1` is reported as 32 nM (IDE; enzyme activity, inhibitor, fluorescence kinetic; with: Mca-RPPGFSAFK(Dnp)-OH substrate).
`O=c1c(OS(=O)(=O)[O-])c(-c2ccc(OS(=O)(=O)[O-])c(OS(=O)(=O)[O-])c2)oc2cc(OS(=O)(=O)[O-])cc(OCc3ccc(COc4cc(OS(=O)(=O)[O-])cc5oc(-c6ccc(OS(=O)(=O)[O-])c(OS(=O)(=O)[O-])c6)c(OS(=O)(=O)[O-])c(=O)c45)cc3)c12.[Na+].[Na+].[Na+].[Na+].[Na+].[Na+].[Na+].[Na+]` gave an inhibition of 60 to 70% (Neutrophil elastase (ELANE, Homo sapiens, UniProt P08246); elastin cleavage, elastin-Congo red; concentration not given, pH 8, 37 °C).
The inhibition of `NC/C(=C\F)COc1cccc(Cn2c(=S)[nH]c(=O)c3[nH]cnc32)c1` is reported as under 50% (rat rolipram binding site; radioligand binding; 10 µM).
